# Assay results collected from several papers.
# Parts stem from different laboratories: compare values within a part only. Substitutions count along the parent as printed.

# Block 1
# Target: CCND1, cyclin fold, Cln2 fusion (human)
# Method: yeast growth competition, sequencing
# Sample: yeast
# Setting: weak parent motif
# Reference: not given
# Reading: higher = stronger binding
# Parent: MASTL docking peptide (human); PMIAKNLMCELDE
Variant,normalised enrichment score
M2A,-0.00386
C9I,0.114
D12Q,0.258
A4K,0.393
L7K,0.245
D12L,-0.123
I3R,-0.0816

# Block 2
# Target: Histone acetyltransferase KAT6A, winged helix 2, GST fusion (KAT6A, Homo sapiens, UniProt Q92794, residues 85-181)
# Method: protein binding microarray
# Molecule type: double-stranded DNA, one strand shown
# Sample: in vitro
# Concentration: not given
# Setting: 8-mer, flanks averaged, mean of 2 arrays, mostly near background
# Reference: not given
# Reading: higher = stronger binding
# Target sequence (chain): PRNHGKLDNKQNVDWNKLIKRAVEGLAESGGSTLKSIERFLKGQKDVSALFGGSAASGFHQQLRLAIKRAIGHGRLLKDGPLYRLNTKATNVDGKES
Oligonucleotide,E-score
ACTTGTGG,-0.0687
CCGGAATA,0.0797
ATACGAAA,0.0424
AGAGCTAG,-0.0201
ATTCAAGA,0.0208
GACGTCAC,-0.184
TCTTGCAA,0.159
AAGAGATA,-0.0669

# Block 3
# Target: Prothrombin, mature alpha-thrombin (F2, Homo sapiens, UniProt P00734)
# Method: aptamer microarray, sandwich
# Molecule type: DNA with 2'F-ANA
# Sample: in vitro
# Concentration: 200 nM
# Setting: whole 15-mer aptamer, many near background
# Together with: Cy3 exosite-II aptamer, 400 nM
# Reading: higher = stronger binding
# Oligonucleotide: GGTTGGTGTGGTTGG
Modification,mean fluorescence intensity
2'F-ANA at 8 9 11 12 13 14,201 a.u.
2'F-ANA at 2 4 5 6 8 9 13 14,44.1 a.u.
2'F-ANA at 1 2 3 7 8 10 13 15,65 a.u.
2'F-ANA at 1 3 4 5 12 13 14 15,46.2 a.u.
2'F-ANA at 1 2 5 6 7 8 10 11 12 13 15,47.9 a.u.
2'F-ANA at 3 5 8 9 10 12 15,68.3 a.u.
2'F-ANA at 5 6 8 9 10 12,50.4 a.u.
2'F-ANA at 1 4 5 6 8 10 13 14 15,47.9 a.u.
2'F-ANA at 1 2 4 6 7 12 14 15,55.9 a.u.

# Mixed results
Substance,target,test,system,conditions,how to read,endpoint,value
"PhoQ, residues 284 288 289 292 302 303 ALVSVA","PhoP, residues 12 14 15 18 19 QWHVF (Escherichia coli, UniProt P23836)","Sort-seq, item: YFP reporter",E. coli,"PhoQ-PhoP variant library, together with: 10 µM Mg2+","reference: high Mg2+ state, higher = stronger signaling",fold induction,9.72

# For quick reference, copied from above (block 3):
Modification,mean fluorescence intensity
2'F-ANA at 3 5 8 9 10 12 15,68.3 a.u.
2'F-ANA at 1 3 4 5 12 13 14 15,46.2 a.u.
